Results collected from several papers.
A part holds a random share of what one study measured.

Set 1
Target: PABPC1L2, full length, GST fusion (mouse, UniProt A0ABA7IW68)
Method: RNAcompete
Form: RNA
Matrix: in vitro
Concentration: 20 nM
Setting: 7-mer, probes averaged, single round
Baseline: mean of 7-mers
Reading: higher = stronger binding
Construct (chain): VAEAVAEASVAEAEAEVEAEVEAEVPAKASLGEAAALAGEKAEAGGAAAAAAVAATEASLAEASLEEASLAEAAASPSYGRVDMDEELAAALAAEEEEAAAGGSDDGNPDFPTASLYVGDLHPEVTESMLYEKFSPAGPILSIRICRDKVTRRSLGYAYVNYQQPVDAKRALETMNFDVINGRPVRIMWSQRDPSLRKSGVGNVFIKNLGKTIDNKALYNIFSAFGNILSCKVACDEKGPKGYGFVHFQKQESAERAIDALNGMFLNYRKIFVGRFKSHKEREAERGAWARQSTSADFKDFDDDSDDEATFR
Strand	7-mer Z-score
AAAGCCU	0.501
CCACUAU	-0.226
AACGUUC	-0.313
CGUCUAU	-0.345
UGCACCC	-0.193
CCAGCAA	0.0406
GGUCGUC	-0.434
AAUGAUG	0.171
GGUGUGU	-0.204

Set 2
Target: RING finger protein unkempt homolog, zinc fingers 1-6, GST-SBP tag (UNK, Homo sapiens, UniProt Q9C0B0, residues 30-357)
Method: RNA Bind-n-Seq
Form: RNA
Matrix: in vitro
Concentration: not given
Setting: RNA with constant flanks, human-mouse chimeric sites, ends assumed
Baseline: input RNA pool
Reading: higher = stronger binding
Shared flanks, not repeated: GGGAGUUCUACAGUCCGACGAUC … CAACAGAGGAUUGAGCAUCA
Construct (chain): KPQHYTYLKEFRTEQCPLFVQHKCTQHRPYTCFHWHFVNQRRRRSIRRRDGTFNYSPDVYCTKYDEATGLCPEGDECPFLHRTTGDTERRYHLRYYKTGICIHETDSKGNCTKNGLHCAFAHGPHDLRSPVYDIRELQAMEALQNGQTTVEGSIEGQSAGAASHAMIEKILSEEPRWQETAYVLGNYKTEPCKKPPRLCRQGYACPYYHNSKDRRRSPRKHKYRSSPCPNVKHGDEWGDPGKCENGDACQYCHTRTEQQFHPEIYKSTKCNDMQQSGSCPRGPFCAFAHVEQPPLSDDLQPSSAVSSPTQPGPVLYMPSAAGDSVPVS
Strand	bound/input enrichment [ratio]
ACUCAGAGAUCCACCUCCCAAAGUGCUGGGAGUAAAGGUGUGGCCACUCAAUUCUCCUUGAUGGAUAUAUAUUUUUUCUCUUUUAUGUCUUCCUGUUCGUCCAGGGAAGAAAGAUUUGUU	0.573
AAAGCCCAAGUAUUUUGAAAAAACUCGAACAGAUUUGACAAGGGUAGCCAGCUUGGAGUCUAGCAACUUUGCCAAUGUGCUUACCAACUGGGGGCUUGUUUUUCUUUUCUUCUUUCAAAU	0.318
CAGUCCCCGUGUCCCAGUGCAGGACGAUGUGAACAAAAACUCAAAGCGGACCCUCUAUUGUAGUUCUUUUUUUAAAUAAUGUGCUAUUAUUGUUUGUAAAAAAGGAAUUUUUUUUAAAGA	0.701
UUUCUACUGCAGCAAACGAUGCUAAGAAUUAAGGAUCCUAAGAAGUCACUGGAUUUUUAUACUAGAGUUCUUGGACUGACCCUCCUGCAGAAGCUUGACUUCCCUGCUAUGAAGUUCUCG	0.0851
UGACAAGGGCACUGCAGGGCCAUGCCUUUCCUUGACAUACAGAAAAAGCUGGGCAUCAGCCUGGACCGGCACUUUAUGUUCCUAAGCGCAGAACAGCCCUACAAGAUCGCCGCUCGGUGC	0.0776
CAGCCUCAGAGCCCAGACUUCCUGGAUAUUACCAACCCCAAAGCCGUAUUAGAAAAUGCAUUGAGAAACUUCGCCUGUCUGACGACUGGAGAUGUGAUUGCUAUCAACUACAAUGAGAAG	0.525

Set 3
Target: Histone acetyltransferase KAT6A, both winged helices, GST fusion (KAT6A, Homo sapiens, UniProt Q92794, residues 1-181)
Method: protein binding microarray
Form: double-stranded DNA, one strand shown
Matrix: in vitro
Concentration: not given
Setting: 8-mer, flanks averaged, mean of 2 arrays, mostly near background
Baseline: not given
Reading: higher = stronger binding
Target sequence (chain): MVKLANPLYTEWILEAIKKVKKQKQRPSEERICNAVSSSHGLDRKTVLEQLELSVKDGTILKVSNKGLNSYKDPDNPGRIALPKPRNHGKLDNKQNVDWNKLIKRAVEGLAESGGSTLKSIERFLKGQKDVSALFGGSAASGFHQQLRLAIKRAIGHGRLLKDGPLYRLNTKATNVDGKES
Strand	E-score
ATACACTG	-0.0825
CTACACCC	-0.219
AATCTTAG	-0.155
CTGCAATA	-0.0834
TGTTTGAA	-0.164
AGCGAGAA	-0.0932
CGAATACA	-0.0191
AGCCTTTC	-0.0147

Single results of other studies
Substance	target	test	test system	setting	scale	quantity	result
PhoQ, residues 284 288 289 292 302 303 AANNSF	PhoP, residues 12 14 15 18 19 MHTVL (Escherichia coli, UniProt P23836)	Sort-seq, measured: YFP reporter	E. coli	PhoQ-PhoP variant library, with: 10 µM Mg2+	baseline: high Mg2+ state, higher = stronger signaling	fold induction	16.3

A few entries again (set 2):
Strand	bound/input enrichment [ratio]
AAAGCCCAAGUAUUUUGAAAAAACUCGAACAGAUUUGACAAGGGUAGCCAGCUUGGAGUCUAGCAACUUUGCCAAUGUGCUUACCAACUGGGGGCUUGUUUUUCUUUUCUUCUUUCAAAU	0.318
CAGUCCCCGUGUCCCAGUGCAGGACGAUGUGAACAAAAACUCAAAGCGGACCCUCUAUUGUAGUUCUUUUUUUAAAUAAUGUGCUAUUAUUGUUUGUAAAAAAGGAAUUUUUUUUAAAGA	0.701
UUUCUACUGCAGCAAACGAUGCUAAGAAUUAAGGAUCCUAAGAAGUCACUGGAUUUUUAUACUAGAGUUCUUGGACUGACCCUCCUGCAGAAGCUUGACUUCCCUGCUAUGAAGUUCUCG	0.0851
